Experimental data from different studies.
Each numbered part is a random draw from the data of one study; scales do not carry over between parts.

Study 1 — method: protein-binding microarray; form: double-stranded DNA, one strand shown; medium: in vitro; concentration: 250 nM; setting: 60-bp whole probe; with: salmon DNA 0.4 mg/ml; relative to: random background probes; reading: higher = stronger binding; shared flanks, not repeated: GCCTAGCAC … GTCTTGATTCGCTTGACGCTGCTG
Target: Interferon regulatory factor 7, full length, phosphomimetic (IRF7, Homo sapiens, UniProt Q92985, residues 1-503, S101K/S471D/S472D/S475D/S476D/S477D/S483D/S484D/S487D)
Residues (chain): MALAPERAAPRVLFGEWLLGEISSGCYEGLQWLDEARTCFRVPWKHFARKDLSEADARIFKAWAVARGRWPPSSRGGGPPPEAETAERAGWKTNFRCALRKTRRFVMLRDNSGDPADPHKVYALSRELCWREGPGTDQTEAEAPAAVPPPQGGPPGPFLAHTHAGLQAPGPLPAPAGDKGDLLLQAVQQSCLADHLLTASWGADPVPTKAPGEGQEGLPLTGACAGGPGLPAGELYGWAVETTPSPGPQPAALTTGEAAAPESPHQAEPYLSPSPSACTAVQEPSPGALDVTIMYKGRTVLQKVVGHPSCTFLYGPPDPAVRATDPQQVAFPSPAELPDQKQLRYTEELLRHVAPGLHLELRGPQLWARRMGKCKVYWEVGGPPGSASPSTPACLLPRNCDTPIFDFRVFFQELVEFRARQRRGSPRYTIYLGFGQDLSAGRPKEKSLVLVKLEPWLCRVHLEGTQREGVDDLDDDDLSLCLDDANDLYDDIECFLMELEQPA
`GACGGACTAGACTATCGGGACGTGCTA` has a log fluorescence of -0.583 z-score.
For `GACGGTCTCCTACTGCCGACGTGCTAG`, the log fluorescence was -0.238 z-score.
The log fluorescence of `GACGAGCTCAGTATCGAGACGTGCTAG` is reported as -0.132 z-score.
The log fluorescence of `TCATGTTTCCTCTTTCAACTGTGCTAG` is reported as 2.79 z-score.
The log fluorescence of `TTATGTTTCGGGACTGGGTTAGTGCTA` is reported as 1.47 z-score.
With `TCATTTTGCTTTCTTTTACTGTGCTAG` the log fluorescence was 1.93 z-score.
For `GACGTTCTCGGTCTCGGGACGTGCTAG`, the log fluorescence was 1.16 z-score.
With `TACGATATCAGTATCGAGACGTGCTAG` the log fluorescence was 0.299 z-score.
With `GACCGTATCGGTATCGGGACGTGCTAG` the log fluorescence was 1.2 z-score.
The log fluorescence of `TTAGGTTGCCTTTTCCTTTAGTGCTAG` is reported as 0.794 z-score.
`ACAAGTTTCTCCTTTCGGAAGTGCTAG` has a log fluorescence of 3.86 z-score.
With `TCATGTTTGAGTCTTCTACTGTGCTAG` the log fluorescence was -0.0986 z-score.
The log fluorescence of `TCAGTTTCCTCTTTCTTACTGTGCTAG` is reported as 4.54 z-score.
With `GACGAACTGAGTCTGGAGACGTGCTAG` the log fluorescence was -0.346 z-score.
`GACGGACTGAGTCTCGGGACGTGCTAG` gave a log fluorescence of -0.291 z-score.
The log fluorescence of `TCAACTTTCTTTAACATACTGTGCTAG` is reported as 0.44 z-score.
`TTAGGACTGCTACTGCTTTTGTGCTAG` gave a log fluorescence of -0.175 z-score.
`TTAGGAGTGCTTTTCCTTTAGTGCTAG` gave a log fluorescence of 0.0288 z-score.
`GACAGTTTCGGGTATCGGGACGTGCTA` has a log fluorescence of 6.61 z-score.
`TTAGGGCTGGACTATCGGTTAGTGCTA` has a log fluorescence of -0.902 z-score.
`GACGGTTTCGACTTTTGGGACGTGCTA` has a log fluorescence of 8.91 z-score.
With `GACGGACTGCTTGTCCTGACGTGCTAG` the log fluorescence was -0.632 z-score.
With `CACGATATCAGACTGGAGACGTGCTAG` the log fluorescence was 0.195 z-score.
The log fluorescence of `GACGGTTTCGGGTATCCGGACGTGCTA` is reported as 7.95 z-score.
The log fluorescence of `GACGGACTGGACGCTGGGGACGTGCTA` is reported as -0.731 z-score.

Study 2 — method: competition protein-binding microarray; form: double-stranded DNA, one strand shown; medium: in vitro; concentration: 2 µM; with: Cbf1 competitor, 0.05 µM; reading: higher = stronger binding; shared flanks, not repeated: … GTCTTGATTCGCTTGACGCTGCTG
Target: Phosphate system positive regulatory protein PHO4, full length, GST-tagged (PHO4, Saccharomyces cerevisiae, UniProt P07270, residues 1-312)
Setting: whole 60-bp probe, lowest competitor level
Construct (chain): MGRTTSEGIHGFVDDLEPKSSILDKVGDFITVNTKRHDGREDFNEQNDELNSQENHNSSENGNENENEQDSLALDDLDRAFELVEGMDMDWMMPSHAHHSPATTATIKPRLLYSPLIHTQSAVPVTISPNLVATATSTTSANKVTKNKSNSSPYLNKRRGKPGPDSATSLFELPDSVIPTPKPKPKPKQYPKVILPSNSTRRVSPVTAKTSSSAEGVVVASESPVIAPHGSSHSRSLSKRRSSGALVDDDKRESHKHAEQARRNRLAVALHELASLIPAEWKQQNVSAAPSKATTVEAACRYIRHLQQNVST
`TAATCTGATGATCGGCACGTATAGGTCTGCGACCTT` gave a fluorescence intensity of 5350 a.u.
For `GCTCTTGCAGCAGTTTCCGTGGGTAGGACCAAGGTC`, the fluorescence intensity was 3200 a.u.
The fluorescence intensity of `AGCTGCCGGCTCGGTCAGGTGGACGAAACAAAAAAG` is reported as 4250 a.u.
The fluorescence intensity of `AGGTTAGGTGTCCATCACGTGCTAAAACCAGCGACT` is reported as 15400 a.u.
`AGTCGAGCCGCCCGTCACGTGCGGAGCCGCCCTGCT` gave a fluorescence intensity of 18100 a.u.
`CTTTCCCGATCTTTTCACGTGATCTTAGCACATTTG` has a fluorescence intensity of 11700 a.u.
`CTTTCCCGATCTTGCTGAGTGGGTGTAGCACATTTG` has a fluorescence intensity of 4560 a.u.
For `AAATCATCTCTTTGTCACGTGACTCGAACCTAGCGG`, the fluorescence intensity was 12800 a.u.
The fluorescence intensity of `TGCGCAACAACTTGGACGGTGGGTGTATGTCTAGAA` is reported as 4950 a.u.
`CTTCTGTAAATTTGGGTTGTGGGTGGACGCGCCCCG` gave a fluorescence intensity of 4680 a.u.
`ATTTCGCAAGGAGCGGGCGTGCGATGTTAACGTCAA` gave a fluorescence intensity of 8420 a.u.
For `AAAGCGGTAATTTTTCACGTGTATTCACATATCTAT`, the fluorescence intensity was 13500 a.u.
With `GTCGTATTATCGAGTCACGTGCTTTATTCCATGGCG` the fluorescence intensity was 15600 a.u.
`TTCCGCAGGTTTATCAACGTGTTTCACTTATATCGG` gave a fluorescence intensity of 12200 a.u.
`AAATTACTAAGTTGATACGTGGGTGACGCCGTATGA` gave a fluorescence intensity of 6870 a.u.
For `AAAGAACTACTGTCCCACGTGGATTCGATCCCTCCC`, the fluorescence intensity was 19700 a.u.
`ATCCCATTGGCAAATCACCTGTTCCGGCTGCTTGAT` has a fluorescence intensity of 5040 a.u.
The fluorescence intensity of `TTCAGCCATCCAAGCCATGTGCTTTAAGTCGTCGCT` is reported as 9720 a.u.
With `TCACTAAATTAGCTGCATGTGCGTTAAATCCACCAA` the fluorescence intensity was 11400 a.u.
The fluorescence intensity of `ACAAGGGCCCTTAAAGGCGTGACTCGAAAAAGGGGC` is reported as 5780 a.u.
`TACAAATTGGTCCGTCACGTTTCTTTTGTTGACTGT` has a fluorescence intensity of 13200 a.u.
With `GTCTTGTCTCATTGGGTCGTGGGTGTCCCCACTTCA` the fluorescence intensity was 7810 a.u.
For `CTAACAACAGAGACCCACATGGACGTTGGCGCAATT`, the fluorescence intensity was 9470 a.u.
For `TTCTCGAAGAGTCGGCACGGGATCCTGAAAAAAGCA`, the fluorescence intensity was 8930 a.u.
`GCGTCGAAATCTAATTTTGTGACAGTGTAGTTCTTA` gave a fluorescence intensity of 3570 a.u.

Study 3 — method: RNA Bind-n-Seq; form: RNA; medium: in vitro; concentration: 365 nM; relative to: no-protein control; reading: higher = stronger binding
Target: RNA binding protein fox-1 homolog 2, RRM domain, GST-SBP tag (RBFOX2, Homo sapiens, UniProt O43251-10, residues 100-194)
Setting: natural RNA segment, single round, ends assumed
Shared flanks, not repeated: GGGAGUUCUACAGUCCGACGAUC … UGGAAUUCUCGGGUGCCAA
Target sequence (chain): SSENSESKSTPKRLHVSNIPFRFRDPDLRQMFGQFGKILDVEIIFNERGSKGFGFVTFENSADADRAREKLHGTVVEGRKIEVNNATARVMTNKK
`GUAGACAGCGUGAAUACGGACAGGAGGUGAUGCCAUAUUCACAGUGGGGGAUGGAGGGCCCCCACCCCUGCUUCACAGAAUAAUGGGAAGUGACUCUAGUCUUUGUAAGC`: “RBNS enrichment (R)” 0.713.
`CUCAGUGUGGUCCUGAGAACAGAAGCAUCUGCAUCACCUGGGAAUGUAUUAGAAAUGCAAGUUCCCAGCCCCAUCCCAGACCUACUGAAUCAGAAACUCUGGGGGCGAGG`: “RBNS enrichment (R)” 0.504.
`UAUAUAUAUAUGGAUGUGUGGAUGUAUGUCUUUCUAAUUGAGAGAACCAUCCUAUUCACUGGGUGCCAAGUUUGAGUGAUGAGGGGCUUGGCUUAGAAGUGAGGCUCCCU`: “RBNS enrichment (R)” 0.606.
`UGUUUUUAUACUUGGAAGUGGUGAAUUAUUUUAUAUAAAGUCAUUUAAAUAUCUAUUUAAAAGAUAGGAAGCUGCUUAUAUAUUUAAUAAUAAAAGAAGUGCACAAGCUG` — result for “RBNS enrichment (R)”: 0.761.
`UGGGGCUGAGGAACUGACGUGGAGCGGGGUAUGAAGAGCUUGCUUUGAUUUACAGCAAGUAGAUAAAUAUUUGACUUGCAUGAAGAGAAGCAAUUUUGGGGAAGGGUUUG`: “RBNS enrichment (R)” 2.96.
Under “RBNS enrichment (R)”, `ACAAAGCUCAAUAAAUAUCCAUUACUCUGCUCAGAGUGUUGAGAGAGAAGCCCUAAUUAACAACGUUGGUGACUUGUGUAAAAUGGAUUUGUAACCUACAAGUCACCAAA` is recorded as 0.553.
Under “RBNS enrichment (R)”, `CACAGGCUACAUGCACACACUGACAACUACCAAUAAACAGACAGGGGAAGGUCUUUCAUCUCAGCCAUUUUCUCUUCCCCCCGCCCCCCCUUAGAUGGAGUCUUGCUCUG` is recorded as 1.07.
`ACUCCCUUGCUGGGCACUACCCCCCCACCUGAUACCCUGCUGUGUAGUCUGACACUGGAGUCCCCAACCCACCCCAUUCCUGCCCUCAUCCUCAGCCCAUCAUUUGUGAA`: “RBNS enrichment (R)” 1.08.
For `CCUCUCGGAGCAGGGAGCUCACCUUCCGCGACGUGUUCUGAGGGUCUGCAUCUUAGGGGGGAGGGCUGGGGCAAAUCGCCACCUGUGCCUUUCCUCUGGCCCUGCUGCCC`, “RBNS enrichment (R)” read 0.338.
`UAGUAGCCCUAGGAAGGAGCUGAGAUCACAAGGAUGACAUUGAAGGAGACAACGGGGCAGUGGCAGCAGGUCAGCAUAUUUAAUAAAGUUGGAGUUGCUACAAAACCUGA`: “RBNS enrichment (R)” 0.62.
`GGAAUGGAACAAGCAAAGAAACUUGUGUUGGUGUCAGGUUGGUGUAGCUGGAUCACCCAAGUAGUAGCCCUUGAUCUCCUUUCAUGACGGAUAGGCUCAGUUAGUCAGGA`: “RBNS enrichment (R)” 0.715.
Under “RBNS enrichment (R)”, `UCCAGGAACCCCUGCCAUGAGGCCAUCAUAGAUCCAGACUCGGGAUGUGGGCUCCAAACCAGAAUAGAGCCUCUGCCAAGGAGCUGGAAACAGCCCAGUGAGGCUGAAGU` is recorded as 0.281.

Study 4 — method: protein binding microarray; form: double-stranded DNA, one strand shown; medium: in vitro; concentration: not given; relative to: not given; reading: higher = stronger binding
Target: Histone acetyltransferase KAT6A, winged helix 2, GST fusion (KAT6A, Homo sapiens, UniProt Q92794, residues 85-181)
Setting: 8-mer, flanks averaged, mean of 2 arrays, mostly near background
Construct (chain): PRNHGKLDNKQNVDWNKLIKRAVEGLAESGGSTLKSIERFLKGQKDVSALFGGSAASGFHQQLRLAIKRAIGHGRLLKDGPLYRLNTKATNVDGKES
`CCAGCGGC` has an E-score of 0.221.
The E-score of `GGCTGCTA` is reported as 0.0561.
`ACCCGGGA` gave an E-score of 0.231.
`AACACCCC` gave an E-score of -0.135.
`CCCGTAGG` gave an E-score of 0.0873.
`CGCTAAGA` gave an E-score of 0.0926.
For `ACGCTAGC`, the E-score was -0.101.
`CCCGCTAA` has an E-score of -0.0642.
With `ATAGAACC` the E-score was -0.155.
The E-score of `TAATCGTA` is reported as -0.0591.
`GAAAACGC` has an E-score of 0.0814.
`GCAAGATA` has an E-score of -0.069.
`AGGTCCCG` has an E-score of 0.135.
`GGCCCCCA` gave an E-score of -0.00035.
The E-score of `CAAGCCAC` is reported as -0.113.
The E-score of `ATTTGGCA` is reported as 0.0222.

Some of these lines once more (study 4):
`CGCTAAGA` gave an E-score of 0.0926.
For `ACGCTAGC`, the E-score was -0.101.
`CCCGCTAA` has an E-score of -0.0642.
With `ATAGAACC` the E-score was -0.155.
The E-score of `TAATCGTA` is reported as -0.0591.
`GAAAACGC` has an E-score of 0.0814.
`GCAAGATA` has an E-score of -0.069.
`AGGTCCCG` has an E-score of 0.135.
`GGCCCCCA` gave an E-score of -0.00035.
The E-score of `CAAGCCAC` is reported as -0.113.
